Experimental data of several laboratories.
Several values in a cell are separate wells, animals, samples, runs or records. ± marks the error that the study gave. In brackets after ≈: the same amount, converted by molar mass.
Oprk1: Kappa-type opioid receptor (Oprk1, Mus musculus, UniProt P33534)
Neuronal acetylcholine receptor; alpha3/beta2: Neuronal acetylcholine receptor; alpha3/beta2 (Rattus norvegicus, UniProt P04757+P12390)
OPRK1: Kappa-type opioid receptor (OPRK1, Homo sapiens, UniProt P41145)
Oprm1: Mu-type opioid receptor (Oprm1, Rattus norvegicus, UniProt P33535)
inhA: Enoyl-[acyl-carrier-protein] reductase [NADH] (inhA, Mycobacterium tuberculosis, UniProt P9WGR1)
Muscarinic acetylcholine receptor: Muscarinic acetylcholine receptor (Xenopus laevis, UniProt A0A8J0U760)
ACHE: Acetylcholinesterase (ACHE, Homo sapiens, UniProt P22303)

Sequences of proteins named here, by UniProt entry; tags and fusion partners are left off. Residues count along the entry.
UniProt P33534, whole entry: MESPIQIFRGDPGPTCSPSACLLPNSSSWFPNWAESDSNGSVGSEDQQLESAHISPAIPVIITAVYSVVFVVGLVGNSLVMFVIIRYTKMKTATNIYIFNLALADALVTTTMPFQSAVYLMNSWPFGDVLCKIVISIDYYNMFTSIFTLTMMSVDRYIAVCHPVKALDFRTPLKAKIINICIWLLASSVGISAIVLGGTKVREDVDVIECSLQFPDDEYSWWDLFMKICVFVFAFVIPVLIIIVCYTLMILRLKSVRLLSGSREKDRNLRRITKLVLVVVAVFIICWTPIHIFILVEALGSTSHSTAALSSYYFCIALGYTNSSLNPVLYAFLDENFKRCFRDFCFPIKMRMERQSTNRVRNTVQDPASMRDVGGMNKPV
UniProt P04757, 26-499 limits assumed: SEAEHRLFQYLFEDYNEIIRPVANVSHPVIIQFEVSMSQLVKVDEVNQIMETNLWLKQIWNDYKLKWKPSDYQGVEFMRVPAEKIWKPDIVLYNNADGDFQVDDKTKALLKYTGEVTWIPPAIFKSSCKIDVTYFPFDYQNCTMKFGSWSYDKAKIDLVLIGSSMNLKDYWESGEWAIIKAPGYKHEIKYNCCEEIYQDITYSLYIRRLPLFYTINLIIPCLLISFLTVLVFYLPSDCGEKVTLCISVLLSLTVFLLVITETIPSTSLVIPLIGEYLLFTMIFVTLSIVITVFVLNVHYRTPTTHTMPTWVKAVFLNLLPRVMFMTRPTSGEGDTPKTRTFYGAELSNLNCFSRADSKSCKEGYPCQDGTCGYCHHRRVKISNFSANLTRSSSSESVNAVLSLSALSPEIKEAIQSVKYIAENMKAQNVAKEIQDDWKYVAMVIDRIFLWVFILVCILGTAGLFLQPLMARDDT
UniProt P04757, whole entry, looked up: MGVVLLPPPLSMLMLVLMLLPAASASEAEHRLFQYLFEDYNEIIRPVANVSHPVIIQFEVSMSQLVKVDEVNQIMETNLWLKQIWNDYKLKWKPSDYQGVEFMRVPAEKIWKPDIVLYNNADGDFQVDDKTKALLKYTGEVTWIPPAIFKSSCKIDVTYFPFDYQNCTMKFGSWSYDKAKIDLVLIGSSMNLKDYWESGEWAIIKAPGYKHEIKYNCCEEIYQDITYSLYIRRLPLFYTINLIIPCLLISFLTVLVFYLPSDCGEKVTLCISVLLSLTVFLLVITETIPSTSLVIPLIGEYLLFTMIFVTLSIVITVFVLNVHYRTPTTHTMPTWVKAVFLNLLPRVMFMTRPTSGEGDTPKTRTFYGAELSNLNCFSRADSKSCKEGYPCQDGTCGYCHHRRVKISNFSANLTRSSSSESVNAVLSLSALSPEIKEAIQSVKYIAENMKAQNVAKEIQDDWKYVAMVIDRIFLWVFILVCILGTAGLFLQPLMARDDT
UniProt P12390, 25-500 limits assumed: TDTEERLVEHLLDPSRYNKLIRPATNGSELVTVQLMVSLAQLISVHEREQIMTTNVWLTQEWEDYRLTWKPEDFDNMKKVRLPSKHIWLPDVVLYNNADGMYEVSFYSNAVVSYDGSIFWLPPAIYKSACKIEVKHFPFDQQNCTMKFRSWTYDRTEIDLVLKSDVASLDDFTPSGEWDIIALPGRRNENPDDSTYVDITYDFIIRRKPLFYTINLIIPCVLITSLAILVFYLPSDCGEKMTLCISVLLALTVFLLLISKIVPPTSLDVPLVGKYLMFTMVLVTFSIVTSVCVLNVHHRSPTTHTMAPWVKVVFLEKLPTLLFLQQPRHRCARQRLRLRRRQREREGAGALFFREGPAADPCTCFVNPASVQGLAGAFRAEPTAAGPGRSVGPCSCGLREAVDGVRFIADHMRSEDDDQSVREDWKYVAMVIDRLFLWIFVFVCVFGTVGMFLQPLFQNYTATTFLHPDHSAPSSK
UniProt P41145, whole entry: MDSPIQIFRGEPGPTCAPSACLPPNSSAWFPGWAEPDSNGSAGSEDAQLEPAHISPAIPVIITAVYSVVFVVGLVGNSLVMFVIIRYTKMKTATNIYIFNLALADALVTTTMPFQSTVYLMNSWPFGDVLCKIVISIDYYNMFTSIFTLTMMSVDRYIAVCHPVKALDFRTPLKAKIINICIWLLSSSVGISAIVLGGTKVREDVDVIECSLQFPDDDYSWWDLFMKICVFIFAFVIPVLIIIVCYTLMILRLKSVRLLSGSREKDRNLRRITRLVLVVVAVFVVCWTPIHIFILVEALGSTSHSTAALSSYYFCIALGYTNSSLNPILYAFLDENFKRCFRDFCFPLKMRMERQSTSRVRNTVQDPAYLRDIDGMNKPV
UniProt P33535, whole entry: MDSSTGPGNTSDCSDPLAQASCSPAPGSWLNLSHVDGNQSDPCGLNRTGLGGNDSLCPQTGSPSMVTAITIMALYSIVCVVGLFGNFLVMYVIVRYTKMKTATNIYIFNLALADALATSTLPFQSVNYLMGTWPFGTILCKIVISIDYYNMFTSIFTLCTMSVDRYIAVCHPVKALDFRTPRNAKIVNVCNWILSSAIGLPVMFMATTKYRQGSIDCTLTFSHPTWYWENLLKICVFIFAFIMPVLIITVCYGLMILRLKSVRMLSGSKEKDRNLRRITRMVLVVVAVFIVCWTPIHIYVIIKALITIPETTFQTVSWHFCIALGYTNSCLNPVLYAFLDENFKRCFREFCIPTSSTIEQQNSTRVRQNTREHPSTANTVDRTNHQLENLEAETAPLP
UniProt P22303, whole entry, looked up: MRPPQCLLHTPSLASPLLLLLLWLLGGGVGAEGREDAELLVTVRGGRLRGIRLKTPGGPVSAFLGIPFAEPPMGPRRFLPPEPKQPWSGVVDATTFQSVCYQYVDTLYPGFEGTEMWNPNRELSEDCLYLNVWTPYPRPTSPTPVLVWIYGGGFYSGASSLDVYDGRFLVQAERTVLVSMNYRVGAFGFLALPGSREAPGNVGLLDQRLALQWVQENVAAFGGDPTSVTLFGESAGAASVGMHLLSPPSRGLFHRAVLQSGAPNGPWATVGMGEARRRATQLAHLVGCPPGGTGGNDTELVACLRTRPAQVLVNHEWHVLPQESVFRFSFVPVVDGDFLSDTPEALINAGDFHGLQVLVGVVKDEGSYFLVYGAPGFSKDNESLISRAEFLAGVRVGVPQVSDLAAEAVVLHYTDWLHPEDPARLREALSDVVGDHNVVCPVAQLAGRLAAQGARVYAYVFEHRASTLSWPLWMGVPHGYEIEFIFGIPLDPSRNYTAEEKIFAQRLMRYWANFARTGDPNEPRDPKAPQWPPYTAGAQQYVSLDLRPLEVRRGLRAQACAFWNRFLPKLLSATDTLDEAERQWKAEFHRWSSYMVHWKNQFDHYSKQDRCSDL
UniProt P22303, 32-614 limits assumed: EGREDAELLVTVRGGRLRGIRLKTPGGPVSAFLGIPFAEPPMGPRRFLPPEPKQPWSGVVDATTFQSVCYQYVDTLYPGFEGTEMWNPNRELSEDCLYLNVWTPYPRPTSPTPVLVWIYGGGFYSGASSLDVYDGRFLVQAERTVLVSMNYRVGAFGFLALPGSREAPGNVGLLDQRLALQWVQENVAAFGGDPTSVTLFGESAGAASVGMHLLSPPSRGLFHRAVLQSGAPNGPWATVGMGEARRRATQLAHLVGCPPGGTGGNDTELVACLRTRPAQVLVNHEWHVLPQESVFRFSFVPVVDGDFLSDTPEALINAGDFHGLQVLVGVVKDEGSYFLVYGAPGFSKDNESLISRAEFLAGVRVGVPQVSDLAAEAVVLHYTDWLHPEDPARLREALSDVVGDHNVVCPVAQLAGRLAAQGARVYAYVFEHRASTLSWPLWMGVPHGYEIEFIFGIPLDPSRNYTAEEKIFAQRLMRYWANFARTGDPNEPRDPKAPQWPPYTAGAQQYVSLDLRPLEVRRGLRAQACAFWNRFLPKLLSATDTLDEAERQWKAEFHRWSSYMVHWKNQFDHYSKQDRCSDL
UniProt Q869C3, whole entry, looked up: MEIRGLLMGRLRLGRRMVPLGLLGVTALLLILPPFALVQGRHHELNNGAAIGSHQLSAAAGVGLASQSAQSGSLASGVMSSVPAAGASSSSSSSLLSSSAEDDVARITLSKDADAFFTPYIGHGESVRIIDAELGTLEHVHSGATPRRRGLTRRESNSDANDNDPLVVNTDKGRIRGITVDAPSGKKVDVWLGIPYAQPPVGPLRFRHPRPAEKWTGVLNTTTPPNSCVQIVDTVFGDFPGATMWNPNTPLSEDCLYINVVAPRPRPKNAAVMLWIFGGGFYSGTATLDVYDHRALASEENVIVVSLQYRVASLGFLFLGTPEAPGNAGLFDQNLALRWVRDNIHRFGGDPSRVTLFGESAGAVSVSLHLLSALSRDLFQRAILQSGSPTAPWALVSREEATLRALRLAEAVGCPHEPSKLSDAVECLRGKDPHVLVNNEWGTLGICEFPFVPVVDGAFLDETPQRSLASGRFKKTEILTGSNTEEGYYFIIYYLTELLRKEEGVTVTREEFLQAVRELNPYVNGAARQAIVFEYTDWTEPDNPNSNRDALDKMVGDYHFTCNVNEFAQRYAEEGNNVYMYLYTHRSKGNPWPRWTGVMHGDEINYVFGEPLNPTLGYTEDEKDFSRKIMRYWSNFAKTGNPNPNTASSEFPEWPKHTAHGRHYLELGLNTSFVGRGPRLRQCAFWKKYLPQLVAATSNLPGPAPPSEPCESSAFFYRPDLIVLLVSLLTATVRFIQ
UniProt P06276, 29-602 limits assumed: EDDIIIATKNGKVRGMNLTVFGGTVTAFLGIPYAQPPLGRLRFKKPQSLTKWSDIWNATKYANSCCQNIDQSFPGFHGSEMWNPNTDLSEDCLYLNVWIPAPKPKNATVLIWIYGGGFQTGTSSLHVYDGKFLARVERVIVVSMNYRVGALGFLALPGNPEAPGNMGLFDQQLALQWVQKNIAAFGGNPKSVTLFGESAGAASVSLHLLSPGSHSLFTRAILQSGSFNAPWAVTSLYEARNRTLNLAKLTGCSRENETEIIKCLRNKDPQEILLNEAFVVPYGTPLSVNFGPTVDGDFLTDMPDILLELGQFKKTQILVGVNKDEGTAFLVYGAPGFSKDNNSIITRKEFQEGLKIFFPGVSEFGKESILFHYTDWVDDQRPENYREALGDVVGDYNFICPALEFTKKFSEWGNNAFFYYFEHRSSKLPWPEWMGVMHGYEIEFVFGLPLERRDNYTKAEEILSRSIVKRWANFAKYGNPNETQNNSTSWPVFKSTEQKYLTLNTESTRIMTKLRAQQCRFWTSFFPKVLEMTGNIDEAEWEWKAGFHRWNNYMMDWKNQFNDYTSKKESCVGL
UniProt Q9NYK1, 27-1049 limits assumed: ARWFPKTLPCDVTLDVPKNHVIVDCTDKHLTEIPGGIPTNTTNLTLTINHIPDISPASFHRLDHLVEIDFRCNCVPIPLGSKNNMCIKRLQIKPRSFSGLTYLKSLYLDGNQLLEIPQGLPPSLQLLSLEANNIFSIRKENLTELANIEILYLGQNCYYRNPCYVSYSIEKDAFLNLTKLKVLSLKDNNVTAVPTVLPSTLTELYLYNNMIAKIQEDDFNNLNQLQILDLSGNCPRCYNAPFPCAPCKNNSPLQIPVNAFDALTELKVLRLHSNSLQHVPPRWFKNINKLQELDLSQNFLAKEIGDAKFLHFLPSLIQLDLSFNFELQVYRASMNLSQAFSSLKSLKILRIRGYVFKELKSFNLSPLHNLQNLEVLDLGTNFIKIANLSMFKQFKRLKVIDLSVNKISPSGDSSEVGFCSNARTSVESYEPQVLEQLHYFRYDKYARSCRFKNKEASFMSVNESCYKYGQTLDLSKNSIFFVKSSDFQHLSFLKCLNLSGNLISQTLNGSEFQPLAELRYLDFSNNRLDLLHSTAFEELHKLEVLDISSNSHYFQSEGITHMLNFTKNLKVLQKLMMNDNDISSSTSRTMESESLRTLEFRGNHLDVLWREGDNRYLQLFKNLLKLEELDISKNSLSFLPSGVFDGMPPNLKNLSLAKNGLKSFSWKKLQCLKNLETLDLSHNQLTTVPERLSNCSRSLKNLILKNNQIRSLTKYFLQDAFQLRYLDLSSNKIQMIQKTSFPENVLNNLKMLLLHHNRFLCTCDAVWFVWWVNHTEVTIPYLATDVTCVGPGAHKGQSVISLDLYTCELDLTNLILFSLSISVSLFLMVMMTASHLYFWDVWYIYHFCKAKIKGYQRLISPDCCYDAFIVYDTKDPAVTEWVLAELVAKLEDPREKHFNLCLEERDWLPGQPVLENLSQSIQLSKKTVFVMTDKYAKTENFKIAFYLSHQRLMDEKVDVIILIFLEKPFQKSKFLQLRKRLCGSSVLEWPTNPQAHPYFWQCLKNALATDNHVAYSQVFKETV
UniProt Q9UGM1, 26-479 limits assumed: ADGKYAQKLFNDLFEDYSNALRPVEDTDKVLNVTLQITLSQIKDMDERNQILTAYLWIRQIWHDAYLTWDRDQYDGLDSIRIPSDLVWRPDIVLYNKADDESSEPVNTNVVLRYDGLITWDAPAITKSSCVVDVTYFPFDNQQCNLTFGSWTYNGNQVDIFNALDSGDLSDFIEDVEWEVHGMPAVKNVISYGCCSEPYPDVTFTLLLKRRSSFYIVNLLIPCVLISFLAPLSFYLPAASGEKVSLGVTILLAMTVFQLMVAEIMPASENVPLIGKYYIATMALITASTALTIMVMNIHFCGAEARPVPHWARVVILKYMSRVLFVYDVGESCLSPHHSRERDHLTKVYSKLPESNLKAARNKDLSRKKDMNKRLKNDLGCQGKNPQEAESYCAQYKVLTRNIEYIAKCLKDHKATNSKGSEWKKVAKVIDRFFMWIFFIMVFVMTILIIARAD

The bias factor of `CN(C(=O)Cc1cccc2occc12)[C@H]1CC[C@@]2(CCCO2)C[C@@H]1N1CCCC1` is reported as 3.2 (Oprk1; agonist; mouse receptor; reference: larger over smaller RAi, vs dynorphin A).
`CC(C)C[C@@H]1NC(=O)[C@H](CCC(=O)O)NC(=O)[C@@H]2CCCN2C(=O)[C@H](Cc2c[nH]cn2)NC(=O)[C@H](CCCCCC(=O)O)NC(=O)[C@H](CC(C)C)NC(=O)[C@H](Cc2c[nH]cn2)NC(=O)[C@@H]2CSSC[C@H](NC(=O)CN)C(=O)N[C@@H](CSSC[C@@H](C(N)=O)NC1=O)C(=O)N[C@@H](CO)C(=O)N[C@@H](Cc1c[nH]cn1)C(=O)N1CCC[C@H]1C(=O)N[C@@H](C)C(=O)N2` has a selectivity ratio of ~39 and 39 (Neuronal acetylcholine receptor; alpha3/beta2; reference: IC50 α6/α3β2β3 over α3β2).
Under antagonist activity, `CO[C@]12CC[C@@]3(C[C@@H]1[C@@](C)(O)C(C)(C)C)[C@H]1Cc4c(Cl)cc(O)c5c4[C@@]3(CCN1CC1CC1)[C@H]2O5` is recorded as “inhibited” (OPRD1 (Homo sapiens, UniProt P41143); antagonist; CHO; concentration not given).
`CNC(=O)Oc1cccc2ccccc12` has a k2 of 1.84 ± 0.37 min⁻¹ (Ace (Anopheles gambiae, UniProt Q869C3); enzyme inhibition, inhibitor).
`CN(C(=O)Cc1ccc(Cl)c(Cl)c1)C1CCC2(CCCO2)CC1N1CCCC1` (stereo not shown) gave an Emax of 54.8 ± 7.9% (OPRK1; receptor internalization, agonist, on-cell western; human receptor; reference: control).
The stimulation of `CO[C@]12CC[C@@]3(C[C@@H]1[C@](C)(O)c1cc(C)cc(C)c1)[C@H]1Cc4ccc(O)c5c4[C@@]3(CCN1CC1CC1)[C@H]2O5` is reported as 24 ± 7% (Oprm1; G protein activation, agonist; 10 µM; reference: DAMGO).
For `CSc1nc(Cl)cc(Sc2nnc(-c3cc(C(F)(F)F)cc(C(F)(F)F)c3)[nH]2)n1`, the MIC was 0.9 µg/mL (≈ 1.91 µM) (Escherichia coli; MC4100; with: NAB7061 4 µg/mL).
The stimulation of `CO[C@]12CC[C@@]3(C[C@@H]1[C@](C)(O)c1ccc(Cl)s1)[C@H]1Cc4ccc(O)c5c4[C@@]3(CCN1CC1CC1)[C@H]2O5` is reported as 45 ± 3% (Oprm1; G protein activation, agonist; 10 µM; reference: DAMGO).
The melting temperature of `O=c1[nH]c(CC2CCCCC2)cc(O)c1-c1ccccc1` is reported as 57.8 °C (inhA; thermal shift; with: NADH ternary complex).
`CO[C@]12CC[C@@]3(C[C@@H]1[C@](C)(O)c1ccc(Cl)cc1)[C@H]1Cc4ccc(O)c5c4[C@@]3(CCN1CC1CC1)[C@H]2O5` gave a stimulation of 17 ± 3% (OPRK1; G-protein activation, agonist; 10 µM; reference: U-69593).
For `CCCCOc1ccc2nc3ccc(=O)cc-3oc2c1`, the MIC90 was 4.8 µM (≈ 1.29 µg/mL) (Mycobacterium tuberculosis; mc2 6206 PA-824-resistant ddn mutant; 7 days).
For `CCCN1CCN(c2ccc3c(c2)C2CC3CCN2C(=O)OCc2ccccc2)CC1` (stereo not shown), the Ki was > 10 µM (HTR1B (Homo sapiens, UniProt P28222); binding, radioligand binding).
`CCCCCCC1c2ccc(O)cc2Oc2cc(O)ccc21` has an MIC of 2.8 µg/mL (≈ 9.38 µM) (Pseudomonas aeruginosa; MDR clinical isolate; with: NAB7061 4 µg/mL).
For `Cc1csc(CCCNCc2cc(=O)c3cc(F)ccc3[nH]2)n1`, binding read “inactive” (DRD3 (Homo sapiens, UniProt P35462); 10 µM).
`O=c1ccc2nc3ccc(OCc4ccc([N+](=O)[O-])s4)cc3oc-2c1` gave an MIC90 of > 256 µM (Mycobacterium tuberculosis; mc2 6206 bedaquiline-resistant MmpL5 regulator mutant; 7 days).
For `pralidoxime iodide`, “reactivation rate ratio” read 10 fold (Cholinesterase, DFP-inhibited (BCHE, Homo sapiens, UniProt P06276); reactivator; reference: kr over kr acetylcholinesterase (human)).
With `O=C(O)c1ccccc1[As](=O)(O)O` the maximal inhibition was 94.3% (SMPD1 (Homo sapiens, UniProt P17405); enzyme activity; pH 5.0, with: sphingomyelin substrate).
For `CCCc1nc2c(NP(=O)(OCC)OCC)nc3ccccc3c2s1`, EC50 read “inactive” (TLR7 (Homo sapiens, UniProt Q9NYK1); reporter gene, agonist, item: NF-κB; HEK-Blue TLR7 cells; inactive means above 100 µM).
`CN(C(=O)Cc1ccc(Cl)c(Cl)c1)[C@H](CN1CCCC1)c1ccccc1` — result for “log intrinsic relative activity”: 1.76 ± 0.21 (Oprk1; receptor internalization, agonist; concentration not given; reference: dynorphin A).
Under “substrate inhibition constant (Kss)”, `CCCC(=O)SCC[N+](C)(C)C` is recorded as 287 ± 35 mM (Butyrylcholinesterase (Sus scrofa, UniProt A0A4X1VEU5); substrate).
`CCN1CCN(Cc2ccc(NC(=O)c3ccc(C)c(/C=C/c4cnc5[nH]ccc5c4OC)c3)cc2C(F)(F)F)CC1`: “log2 fold change” -0.131 (MSN-ALK fusion; kinase-CDC37 interaction, cell-based kinome screen; 5 µM; reference: vehicle).
`CCCCOP(=O)(OCCCC)OCCCC` — result for “concentration at maximal activation”: 33 µM (PPARG (Homo sapiens, UniProt P37231); reporter gene, agonist, PPARγ1 reporter; HEK293).
The antagonist activity of `C=CCN1CC[C@@]23c4c5ccc(O)c4C[C@@H]2[C@H](O)C=C[C@@H]3[C@@H]1C5` is reported as ~35% (OPRM1 (Homo sapiens, UniProt P35372); DAMGO response, GI-1; concentration not given, with: DAMGO; reference: naloxone).
`CC#C/C(=N\OC[C@H]1COCCN1)c1ccc2ncnc(Nc3ccc(OCc4cccc(F)c4)c(Cl)c3)c2c1` has an inhibition of 0% (DDR2 (Homo sapiens, UniProt Q16832); kinase activity; 10 µM).
`CO[C@]12CC[C@@]3(C[C@@H]1[C@](C)(O)c1ccc(C)cc1)[C@H]1Cc4ccc(O)c5c4[C@@]3(CCN1CC1CC1)[C@H]2O5` has a stimulation of 84 ± 7% (OPRK1; G-protein activation, agonist; 10 µM; reference: U-69593).
`CC(C)C[C@@H]1NC(=O)[C@H](CCC(=O)O)NC(=O)[C@@H]2CCCN2C(=O)[C@H](Cc2c[nH]cn2)NC(=O)[C@H](CCCCC(=O)O)NC(=O)[C@H](CC(C)C)NC(=O)[C@H](Cc2c[nH]cn2)NC(=O)[C@@H]2CSSC[C@H](NC(=O)CN)C(=O)N[C@@H](CSSC[C@@H](C(N)=O)NC1=O)C(=O)N[C@@H](CO)C(=O)N[C@@H](Cc1c[nH]cn1)C(=O)N1CCC[C@H]1C(=O)N[C@@H](C)C(=O)N2` gave a selectivity ratio of 114 (Nicotinic acetylcholine receptor alpha6/alpha3/beta4 (Rattus norvegicus, UniProt P04757+P12392+P43143); reference: IC50 α6/α3β4 over α3β2).
`Cc1c(-c2ccc(-c3ccc(OC(F)(F)F)cc3)nc2)[nH]c2ccccc2c1=O` gave a specific activity of 4.5 ± 0.9 µmol/min/mg (cydA, with CydB subunit (Mycobacterium tuberculosis, UniProt L7N662); substrate).
`CCOc1ccc2c(c1)Oc1cc(OCC)ccc1C21OC(=O)c2ccccc21` has a Vmax of 301 ± 12 RFU/s (Cytochrome P450 6P2 (Anopheles gambiae, UniProt Q8T629, V81I); substrate; dual plasmid expression).
`C[C@@H]1NC(=O)[C@H](CCCNC(=N)N)NC(=O)[C@H](CCCNC(=N)N)NC(=O)[C@H](Cc2c[nH]cn2)NC(=O)[C@H](CO)NC(=O)[C@@H]2CSSC[C@H](NC(=O)CN)C(=O)N[C@@H](CSSC[C@@H](C(N)=O)NC(=O)[C@H](CO)NC(=O)[C@H](CCCNC(=N)N)NC1=O)C(=O)N[C@@H](CO)C(=O)N[C@@H](Cc1c[nH]cn1)C(=O)N1CCC[C@H]1C(=O)N[C@@H](C)C(=O)N2` has a remaining response of 6 ± 6% (Neuronal acetylcholine receptor; alpha9/alpha10 (Homo sapiens, UniProt Q9GZZ6+Q9UGM1); ion current, antagonist; Xenopus oocytes; 10 µM, 5 min, with: acetylcholine; reference: control).
With `carbachol` the Hill coefficient was 0.51 (Muscarinic acetylcholine receptor; binding, [3H]QNB competition; Xenopus laevis heart homogenate).
The selectivity ratio of `N=C(N)NCC(=O)NCC1(Cc2ccccc2)CCN(Cc2ccccc2)CC1` is reported as 2 fold (Neuropeptide FF receptor 2 (Homo sapiens, UniProt Q9Y5X5); reference: mu and kappa opioid over NPFF2).
Under “time to maximum”, `nociceptin` is recorded as 60 min (Nociceptin receptor (OPRL1, Homo sapiens, UniProt P41146); receptor internalization; 10 µM).
`CC(C[N+](C)(C)C)OC(N)=O` (stereo not shown) has a Hill coefficient of 0.53 (Muscarinic acetylcholine receptor; binding, [3H]QNB competition; Xenopus laevis heart homogenate).
For `CCN(CC)Cc1cc(N)ccc1O`, “lowest significant inhibitory concentration” read > 500 µM (ACHE; irreversible inhibitor; free enzyme).
`CO[C@]12CC[C@@]3(C[C@@H]1[C@](C)(O)c1ccc(C(C)C)cc1)[C@H]1Cc4ccc(O)c5c4[C@@]3(CCN1CC1CC1)[C@H]2O5` has a stimulation of 13 ± 3% (Oprm1; G protein activation, agonist; 10 µM; reference: DAMGO).
The selectivity ratio of `CC[C@H](C)[C@@H]1NC(=O)[C@H](CCC(=O)O)NC(=O)[C@@H]2CCCN2C(=O)[C@H](Cc2c[nH]cn2)NC(=O)[C@H](CC(N)=O)NC(=O)[C@H](CC(C)C)NC(=O)[C@H](Cc2c[nH]cn2)NC(=O)[C@@H]2CSSC[C@H](NC(=O)CN)C(=O)N[C@@H](CSSC[C@@H](C(N)=O)NC1=O)C(=O)N[C@@H](CO)C(=O)N[C@@H](Cc1c[nH]cn1)C(=O)N1CCC[C@H]1C(=O)N[C@@H](C)C(=O)N2` is reported as 3 (Neuronal acetylcholine receptor; alpha3/beta2; reference: IC50 α6/α3β2β3 over α3β2).
The half-life of `CCOc1ccc2cc(-c3nn(CC4CCN(C)CC4)c4ncnc(N)c34)ccc2n1` is reported as > 2 h (concentration not given, dog).
`U-69593` gave an ERK1/2 phosphorylation of 100% (OPRK1; agonist, in-cell western; CHO expressing human KOR; 10 µM; reference: reference agonist).
`methoxymethyl salvinorin B` gave an Emax of 40 ± 1.6% (Oprk1; receptor internalization, agonist, on-cell western; mouse receptor; reference: control).
The inhibition of `CC(C)[C@H]1CC[C@@H](N2CCC(n3c(CO)cc4ccccc43)CC2)CC1` is reported as 92% (TACR2 (Homo sapiens, UniProt P21452); radioligand binding; 10 µM).
`CCN(CC)Cc1ccccc1O` gave an inhibition of 0% (ACHE; enzyme activity, inhibitor; 1000 µM).
`CCC(=O)SCC[N+](C)(C)C` — result for “substrate inhibition constant (Kss)”: 4.7 ± 1.6 mM (ACHE; substrate).
`CC1(C)CCC(Cc2cc(O)c(-c3ccccc3)c(=O)[nH]2)CC1` gave a melting temperature of 55 °C (inhA; thermal shift; with: NAD+ ternary complex).
The Km of `O[As](O)O` is reported as 219 µM (Probable inositol transporter 2 (INT2, Arabidopsis thaliana, UniProt Q9C757); arsenic uptake, substrate, ICP-MS; yeast expressing transporter; 30 min, 30 °C, with: 2 µg/mL myo-inositol).
With `ethoxymethyl salvinorin B` the Emax was 46.7 ± 4.5% (OPRK1; receptor internalization, agonist, on-cell western; human receptor; reference: control).
The stimulation of `CO[C@]12CC[C@@]3(C[C@@H]1[C@](C)(O)c1ccsc1)[C@H]1Cc4ccc(O)c5c4[C@@]3(CCN1CC1CC1)[C@H]2O5` is reported as 3 ± 2% (Oprm1; G protein activation, agonist; 10 µM; reference: DAMGO).

Repeated from above:
The selectivity ratio of `CC[C@H](C)[C@@H]1NC(=O)[C@H](CCC(=O)O)NC(=O)[C@@H]2CCCN2C(=O)[C@H](Cc2c[nH]cn2)NC(=O)[C@H](CC(N)=O)NC(=O)[C@H](CC(C)C)NC(=O)[C@H](Cc2c[nH]cn2)NC(=O)[C@@H]2CSSC[C@H](NC(=O)CN)C(=O)N[C@@H](CSSC[C@@H](C(N)=O)NC1=O)C(=O)N[C@@H](CO)C(=O)N[C@@H](Cc1c[nH]cn1)C(=O)N1CCC[C@H]1C(=O)N[C@@H](C)C(=O)N2` is reported as 3 (Neuronal acetylcholine receptor; alpha3/beta2; reference: IC50 α6/α3β2β3 over α3β2).
The half-life of `CCOc1ccc2cc(-c3nn(CC4CCN(C)CC4)c4ncnc(N)c34)ccc2n1` is reported as > 2 h (concentration not given, dog).
`U-69593` gave an ERK1/2 phosphorylation of 100% (OPRK1; agonist, in-cell western; CHO expressing human KOR; 10 µM; reference: reference agonist).
